Assay results gathered from unrelated publications.
Each line is one published result; not all experiments were run side by side. “And” joins repeats or separate records; there may be more than shown. Numbers after ± are the reported error.

| Compound | assay | system | setting | scale | quantity | value |
| --- | --- | --- | --- | --- | --- | --- |
| CC(C)C[C@@H](N)C(=O)NCC(=O)N[C@H](C)C(=O)N[C@H](CO)C(=O)N[C@H](Cc1c[nH]c2ccccc12)C(=O)N[C@H](Cc1c[nH]cn1)C(=O)N[C@H](CCCNC(=N)N)C(=O)N1CCC[C@@H]1C(=O)N[C@H](CC(=O)O)C(=O)N[C@H](CCCCN)C(=O)N[C@H](CS)C(=O)N[C@H](CS)C(=O)N[C@H](CC(C)C)C(=O)NCC(=O)N[C@H](Cc1ccc(O)cc1)C(=O)N[C@H](CCC(N)=O)C(=O)N[C@H](CCCCN)C(=O)N[C@H](CCCNC(=N)N)C(=O)N1CCC[C@@H]1C(=O)N[C@H](CC(C)C)C(=O)N1CCC[C@@H]1C(N)=O | LC-MS/MS | rat plasma | 25 ng/mL, -80 to 25 °C, 3 freeze-thaw cycles | baseline: nominal | accuracy | 91.5% |
| [11CH3]n1c(=O)n(CCCO)c(=O)c2c1nc(Oc1cccc(OC(F)(F)F)c1)n2Cc1ccc(Cl)cc1 | ex vivo biodistribution | Sprague Dawley rat, fat | 60 min post injection |  | tracer uptake | 0.86 ± 0.23 %ID/g |
| CC[C@H](C)[C@H](NC(=O)[C@H](C)NC(=O)[C@H](CCCNC(=N)N)NC(=O)CNC(=O)CNC(=O)[C@H](CCCNC(=N)N)NC(=O)[C@H](CCCNC(=N)N)NC(=O)[C@H](CCCNC(=N)N)NC(=O)[C@H](CCC(N)=O)NC(=O)[C@H](CCCNC(=N)N)NC(=O)[C@H](CCCNC(=N)N)NC(=O)[C@H](CCCCN)NC(=O)[C@H](CCCCN)NC(=O)[C@H](CCCNC(=N)N)NC(=O)CNC(=O)[C@@H](N)Cc1ccc(O)cc1)C(=O)N[C@H](C(=O)N[C@H](C(=O)N[C@@H](CC(C)C)C(=O)N[C@@H](CC(=O)O)C(=O)N[C@H](C(=O)N[C@@H](CCC(=O)O)C(=O)N[C@@H](CCCCN)C(=O)N[C@@H](CO)C(=O)O)[C@@H](C)O)[C@@H](C)CC)[C@@H](C)O |  | rat, TRPV1 knockout, myocardial infarction | dose not given, 15 min ischemia |  | rectal body temperature | 37.1 ± 0.1 °C |
| CC[C@@H](C)[C@@H](NC(=O)[C@@H](C)NC(=O)[C@@H](CCCCN)NC(=O)[C@@H](CC(C)C)NC(=O)[C@@H](C)NC(=O)[C@H](NC(=O)[C@@H](Cc1c[nH]cn1)NC(=O)[C@@H](CC(C)C)NC(=O)[C@H](NC(=O)[C@H](NC(=O)[C@@H](CCCCN)NC(=O)[C@@H](CCCCN)NC(=O)[C@@H](C)NC(=O)[C@@H](CO)NC(=O)[C@@H](CCCCN)NC(=O)[C@@H](Cc1ccccc1)NC(=O)[C@H](NC(=O)[C@@H](CCCCN)NC(=O)[C@@H](CC(C)C)NC(=O)[C@@H](Cc1ccccc1)NC(=O)[C@@H](CO)NC(=O)[C@@H](CCCCN)NC(=O)[C@@H](Cc1c[nH]c2ccccc12)NC(=O)[C@@H](CCCCN)NC(C)=O)[C@H](C)O)[C@H](C)O)C(C)C)[C@H](C)O)C(=O)N[C@H](CO)C(=O)N[C@H](CO)C(N)=O | circular dichroism | aqueous phosphate buffer | pH 7.0, 5 °C, at 222 nm |  | mean residue ellipticity | 1150 deg cm²/dmol |
| O=c1cc(-c2ccccc2)oc2c(Br)c(O)c(O)c(O)c12 |  | C57BL/6 mouse, plasma | po, 150 mg/kg |  | Vz | 4350 ± 1920 mL |
| O=C(c1ccc(F)cc1)C1CCN(C2Cc3c(cccc3OCC[18F])CC2O)CC1 (single isomer, unassigned; (-)) |  | Sprague-Dawley rat, male, bone | intravenous, dose not given, 30 min |  | tissue uptake | 0.369 ± 0.02 %ID/g |
| CCCC[C@H](NC(=O)CN1CCC(NC(=O)CN2CCC(NC(=O)CN3CCN(CC(=O)O)CCN(CC(=O)O)CCN(CC(=O)O)CC3)CC2)CC1)C(=O)N[C@H]1CC(=O)NCCCC[C@@H](C(N)=O)NC(=O)[C@H](Cc2c[nH]c3ccccc23)NC(=O)[C@H](CCCNC(=N)N)NC(=O)[C@@H](Cc2ccccc2)NC(=O)[C@H](Cc2c[nH]cn2)NC1=O [gallium-68 labelled] |  | C57BL/6J mice male B16-F10 tumour, pancreas | 1 h post injection, unblocked |  | tissue uptake | 0.1 %ID/g |
| COc1cc(NC(=O)C(=O)c2c(C)n(Cc3ccc(Cl)cc3)c3ccc(C)cc23)ccn1 |  | male cynomolgus monkey, plasma | oral, 10 mg/kg |  | AUC | 3.03 µg·h/mL |
| COc1cc(-c2cncc(-c3ccc(C4CCN([11CH3])CC4)cc3)c2C)cc(OC)c1OC | dynamic PET | Sprague-Dawley rats male, whole brain | intravenous, 16 to 23 MBq |  | peak SUV | 0.9 |
| CSCC[C@@H]1NC(=O)[C@@H]2CSSC[C@H](NC(=O)[C@H](CO)NC(=O)[C@H](C)N)C(=O)N[C@@H](CCCNC(=N)N)C(=O)N[C@@H]([C@@H](C)O)C(=O)N3CCC[C@H]3C(=O)N[C@@H](CCCCN)C(=O)N[C@@H](CC(=O)O)C(=O)N[C@H]3CSSC[C@H](NC(=O)[C@H](CCCCN)NC(=O)[C@H](CCCNC(=N)N)NC(=O)[C@H](CC(N)=O)NC1=O)C(=O)N[C@@H](CCCCN)C(=O)N[C@H]1CSSC[C@H](NC(=O)[C@@H]4CCCN4C(=O)[C@H](CC(=O)O)NC(=O)[C@H](C)NC3=O)C(=O)N[C@@H](C)C(=O)N[C@@H](CCCCN)C(=O)N[C@@H](CCC(=O)O)C(=O)N[C@@H]([C@@H](C)O)C(=O)NCC(=O)N[C@@H](CSSC[C@@H](C(N)=O)NC(=O)[C@H](CCCNC(=N)N)NC(=O)[C@H](CC(N)=O)NC1=O)C(=O)N1CCC[C@H]1C(=O)N[C@@H](Cc1ccc(O)cc1)C(=O)NCC(=O)N[C@@H](CCCCN)C(=O)N2 |  | DA rat pristane-induced arthritis, serum | subcutaneous, 0.1 mg/kg every other day, 21 days |  | Sodium | 130 mmol/L |
| COc1cc(-c2nc3ccccc3s2)cc(CN(Cc2ccccn2)Cc2ccccn2)c1O | Alamar Blue | Neuro2A, mouse | 2 µM, 40 h |  | viability | 72 ± 4% |
| COc1cc2c3c(c4cc(OC)c(OC)c(OC)c4c2cc1OC)CC1CCCN1C3=O (stereo not drawn) |  | swine cells | 24 (unit not given) |  | CC50 | > 100 µM |
| CC(C)[C@H](NC(=O)[C@@H](NC(=O)[C@H](CCCNC(=N)N)NC(=O)[C@H](CCCNC(=N)N)NC(=O)[C@H](CCCNC(=N)N)NC(=O)[C@H](CCC(N)=O)NC(=O)[C@H](CCCNC(=N)N)NC(=O)[C@H](CCCNC(=N)N)NC(=O)[C@H](CCCCN)NC(=O)[C@H](CCCCN)NC(=O)[C@H](CCCNC(=N)N)NC(=O)CN)[C@@H](C)O)C(=O)N[C@H](C(=O)N[C@@H](CO)C(=O)N1CCC[C@H]1C(=O)O)[C@@H](C)O |  | mouse ICR | intranasal, high dose daily, 4 weeks, outcome decreased | baseline: vehicle | brain weight | decreased |
| [11CH3]Sc1ccc(C(=O)C2CCN(C3Cc4ccccc4CC3O)CC2)cc1 (single isomer, unassigned; (-)) | PET imaging | cynomolgus monkey, striatum |  |  | time to maximum uptake | ~9 min |
| CC(C)[C@H](NC(=O)CNC(=O)[C@H](CCC(N)=O)NC(=O)[C@H](C)N)C(=O)O |  | healthy human | intravenous, 30 mg/kg single dose | baseline: subjects | definitely drug-related adverse events | 0% |
| CC(C)[C@H](NC(=O)CNC(=O)[C@H](CCC(N)=O)NC(=O)[C@H](C)N)C(=O)O |  | healthy male volunteers | intravenous, 15 mg/kg/h, 2 h, added: LPS 2 ng/kg |  | subjects given concomitant medication | 0% |
| CC[C@H](C)[C@H](NC(=O)[C@H](Cc1ccc(O)cc1)NC(=O)[C@H](C)NC(=O)[C@H](CC(=O)O)NC(=O)[C@H](CC(C)C)NC(=O)[C@H](C)NC(=O)[C@H](C)NC(=O)[C@H](CCCCN)NC(=O)CNC(=O)[C@@H](NC(=O)[C@H](Cc1c[nH]cn1)NC(=O)[C@H](CCCCN)NC(=O)CNC(=O)[C@@H](NC(=O)[C@H](Cc1c[nH]cn1)NC(=O)[C@@H](NC(=O)[C@H](C)NC(=O)[C@H](CCCCN)NC(=O)[C@H](CCCCN)NC(=O)[C@@H](NC(=O)[C@H](Cc1c[nH]c2ccccc12)NC(=O)[C@H](CCCCN)NC(=O)[C@H](CCCNC(=N)N)NC(=O)[C@H](Cc1c[nH]c2ccccc12)NC(=O)CN)[C@@H](C)CC)[C@@H](C)O)C(C)C)[C@@H](C)CC)C(N)=O |  | zebrafish embryos | 1 h, 4, 28, 52 hpf |  | acute toxic concentration | 5 µg/mL |
| COc1ccc(NC(=O)Cn2c(=O)c3ccccc3n(CC(=O)Nc3cc([125I])c(OC)cc3OC)c2=O)cc1 |  | rat, intestine | intravenous, 30 min |  | tracer uptake | 5.32 %ID/g |
| CC(C)C[C@H](NC(=O)[C@H](CCCCN)NC(=O)[C@H](CCC(=O)O)NC(=O)[C@H](C)NC(=O)[C@@H](NC(=O)[C@H](CCCCN)NC(=O)[C@H](CC(=O)O)NC(=O)[C@H](Cc1ccc(O)cc1)NC(=O)[C@H](Cc1ccccc1)NC(=O)[C@H](C)NC(=O)[C@H](CCCCN)NC(=O)[C@H](CC(C)C)NC(=O)[C@H](Cc1c[nH]c2ccccc12)NC(=O)[C@@H](N)CC(=O)O)C(C)C)C(=O)N[C@@H](CCCCN)C(=O)N[C@@H](CCC(=O)O)C(=O)N[C@@H](C)C(=O)N[C@@H](Cc1ccccc1)C(=O)N1CCC[C@H]1C(=O)N[C@@H](CC(=O)O)C(=O)N[C@@H](Cc1c[nH]c2ccccc12)C(=O)N[C@@H](C)C(=O)N[C@@H](CCCCN)C(=O)N[C@@H](C)C(=O)N[C@@H](C)C(=O)N[C@@H](Cc1ccc(O)cc1)C(=O)N[C@@H](CC(=O)O)C(=O)N[C@@H](CCCCN)C(=O)N[C@@H](C)C(=O)N[C@@H](C)C(=O)N[C@@H](CCC(=O)O)C(=O)N[C@@H](CCCCN)C(=O)N[C@@H](C)C(=O)N[C@@H](CCCCN)C(=O)N[C@@H](CCC(=O)O)C(=O)N[C@@H](C)C(=O)N[C@@H](C)C(=O)O |  | cynomolgus monkey male, plasma | intravenous infusion, 75 mg/kg, day 1, 30 min infusion |  | AUC(0-inf) | 8510 µg·h/mL |
| CCN(CCCCOc1ccc(CCC(=O)N2CCC(Cc3ccccc3)CC2)cc1OC)Cc1ccccc1 |  | Sprague-Dawley rat, faeces and urine | oral, 25 mg/kg, 48 h | baseline: dose | cumulative excretion | 1.46% |
| [3H]c1sc(C)nc1C=C(C)C1CC2C(CCCC(C)C(O)C(C)C(=O)C(C)(C)C(O)CC(=O)O1)N2CCO (stereo not drawn) |  | CD2F1 mice, M109 tumour (FR−) | intravenous, 2.2 nmol/kg, 6 h |  | tumour concentration | 260 ± 70 ng/g |
| CC[C@H](C)[C@H](NC(=O)[C@H](C)NC(=O)CNC(=O)[C@H](Cc1ccccc1)NC(=O)[C@H](CC(N)=O)NC(=O)[C@H](CC(N)=O)NC(=O)[C@H](CO)NC(=O)[C@H](CO)NC(=O)[C@H](Cc1c[nH]cn1)NC(=O)[C@@H](NC(=O)[C@H](CC(C)C)NC(=O)[C@H](Cc1ccccc1)NC(=O)[C@H](CC(N)=O)NC(=O)[C@H](C)NC(=O)[C@H](CC(C)C)NC(=O)[C@H](CCCNC(=N)N)NC(=O)[C@H](CCC(N)=O)NC(=O)[C@@H](NC(=O)[C@H](C)NC(=O)[C@@H]1CSSC[C@H](NC(=O)[C@@H](N)CCCCN)C(=O)N[C@@H](CC(N)=O)C(=O)N[C@@H]([C@@H](C)O)C(=O)N[C@@H](C)C(=O)N[C@@H]([C@@H](C)O)C(=O)N1)[C@@H](C)O)C(C)C)C(=O)N[C@@H](CC(C)C)C(=O)N[C@@H](CO)C(=O)N[C@@H](CO)C(=O)N[C@H](C(=O)N[C@@H](CC(N)=O)C(=O)N[C@H](C(=O)NCC(=O)N[C@@H](CO)C(=O)N[C@@H](CC(N)=O)C(=O)N[C@H](C(=O)N[C@@H](Cc1ccc(O)cc1)C(N)=O)[C@@H](C)O)C(C)C)[C@@H](C)O | pyrene fluorescence | 20 mM phosphate, 50 mM NaCl | pH 7.4, 25 °C |  | critical micelle concentration | ~1.5 µM and ~2 µM |
| [2H]C([2H])([2H])C([2H])([2H])C([2H])([2H])OC(C(=O)OC1CCNCC1)(c1ccccc1)c1ccccc1 | refers to: headache | healthy Japanese male | oral, 10 mg, 16 days, multiple ascending dose |  | adverse drug reactions | 0% |
| CCCCCCCCCCCCC(=O)O.O=C1CCCC2C3CCCN4CCCC(CN12)C34 (stereo not drawn) |  | water | concentration not given, 293.15 K |  | critical aggregation concentration | 0.00095 mol/kg |

A few entries again:
| Compound | assay | system | setting | scale | quantity | value |
| --- | --- | --- | --- | --- | --- | --- |
| COc1cc(NC(=O)C(=O)c2c(C)n(Cc3ccc(Cl)cc3)c3ccc(C)cc23)ccn1 |  | male cynomolgus monkey, plasma | oral, 10 mg/kg |  | AUC | 3.03 µg·h/mL |
| COc1cc(-c2cncc(-c3ccc(C4CCN([11CH3])CC4)cc3)c2C)cc(OC)c1OC | dynamic PET | Sprague-Dawley rats male, whole brain | intravenous, 16 to 23 MBq |  | peak SUV | 0.9 |
